# Published values collected from several papers.
# Numbered parts are unrelated; each lists some results of a single study.
# Sequence of UniProt Q16566 (whole entry, looked up): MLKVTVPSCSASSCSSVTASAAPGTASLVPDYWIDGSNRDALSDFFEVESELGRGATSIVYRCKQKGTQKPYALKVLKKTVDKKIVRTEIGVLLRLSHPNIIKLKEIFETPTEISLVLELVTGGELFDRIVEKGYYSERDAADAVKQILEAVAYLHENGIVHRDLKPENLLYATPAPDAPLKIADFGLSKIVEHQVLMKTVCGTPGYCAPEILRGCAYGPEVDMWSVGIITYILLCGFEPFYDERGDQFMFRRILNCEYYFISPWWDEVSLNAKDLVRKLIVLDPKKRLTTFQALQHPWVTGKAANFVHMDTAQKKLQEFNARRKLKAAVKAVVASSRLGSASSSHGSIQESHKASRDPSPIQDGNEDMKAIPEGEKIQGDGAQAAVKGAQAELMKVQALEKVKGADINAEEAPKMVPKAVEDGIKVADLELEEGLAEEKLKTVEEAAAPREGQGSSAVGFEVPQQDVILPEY
# Sequence of UniProt Q15759 (whole entry, looked up): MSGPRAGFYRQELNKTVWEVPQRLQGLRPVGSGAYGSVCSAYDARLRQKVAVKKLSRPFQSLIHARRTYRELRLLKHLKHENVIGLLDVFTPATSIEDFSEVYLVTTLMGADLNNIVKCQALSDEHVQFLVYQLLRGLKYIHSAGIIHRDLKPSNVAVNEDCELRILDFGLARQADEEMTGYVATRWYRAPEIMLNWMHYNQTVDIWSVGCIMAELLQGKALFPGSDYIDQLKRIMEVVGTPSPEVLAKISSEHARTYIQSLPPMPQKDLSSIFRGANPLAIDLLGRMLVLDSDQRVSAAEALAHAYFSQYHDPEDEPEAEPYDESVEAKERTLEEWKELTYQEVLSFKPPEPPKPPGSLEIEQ
# Sequence of UniProt P50406 (whole entry, looked up): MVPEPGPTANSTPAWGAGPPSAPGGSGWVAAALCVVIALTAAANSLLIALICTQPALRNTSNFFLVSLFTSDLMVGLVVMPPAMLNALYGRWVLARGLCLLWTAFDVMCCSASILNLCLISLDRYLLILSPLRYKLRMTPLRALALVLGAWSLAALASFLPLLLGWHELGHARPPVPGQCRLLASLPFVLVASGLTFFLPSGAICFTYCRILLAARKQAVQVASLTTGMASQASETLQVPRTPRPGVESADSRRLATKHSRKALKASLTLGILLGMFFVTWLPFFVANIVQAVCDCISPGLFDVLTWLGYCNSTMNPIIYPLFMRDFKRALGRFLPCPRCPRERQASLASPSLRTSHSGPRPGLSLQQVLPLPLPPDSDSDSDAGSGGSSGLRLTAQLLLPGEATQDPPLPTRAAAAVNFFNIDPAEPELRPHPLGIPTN
# Sequence of UniProt P35968 (whole entry, looked up): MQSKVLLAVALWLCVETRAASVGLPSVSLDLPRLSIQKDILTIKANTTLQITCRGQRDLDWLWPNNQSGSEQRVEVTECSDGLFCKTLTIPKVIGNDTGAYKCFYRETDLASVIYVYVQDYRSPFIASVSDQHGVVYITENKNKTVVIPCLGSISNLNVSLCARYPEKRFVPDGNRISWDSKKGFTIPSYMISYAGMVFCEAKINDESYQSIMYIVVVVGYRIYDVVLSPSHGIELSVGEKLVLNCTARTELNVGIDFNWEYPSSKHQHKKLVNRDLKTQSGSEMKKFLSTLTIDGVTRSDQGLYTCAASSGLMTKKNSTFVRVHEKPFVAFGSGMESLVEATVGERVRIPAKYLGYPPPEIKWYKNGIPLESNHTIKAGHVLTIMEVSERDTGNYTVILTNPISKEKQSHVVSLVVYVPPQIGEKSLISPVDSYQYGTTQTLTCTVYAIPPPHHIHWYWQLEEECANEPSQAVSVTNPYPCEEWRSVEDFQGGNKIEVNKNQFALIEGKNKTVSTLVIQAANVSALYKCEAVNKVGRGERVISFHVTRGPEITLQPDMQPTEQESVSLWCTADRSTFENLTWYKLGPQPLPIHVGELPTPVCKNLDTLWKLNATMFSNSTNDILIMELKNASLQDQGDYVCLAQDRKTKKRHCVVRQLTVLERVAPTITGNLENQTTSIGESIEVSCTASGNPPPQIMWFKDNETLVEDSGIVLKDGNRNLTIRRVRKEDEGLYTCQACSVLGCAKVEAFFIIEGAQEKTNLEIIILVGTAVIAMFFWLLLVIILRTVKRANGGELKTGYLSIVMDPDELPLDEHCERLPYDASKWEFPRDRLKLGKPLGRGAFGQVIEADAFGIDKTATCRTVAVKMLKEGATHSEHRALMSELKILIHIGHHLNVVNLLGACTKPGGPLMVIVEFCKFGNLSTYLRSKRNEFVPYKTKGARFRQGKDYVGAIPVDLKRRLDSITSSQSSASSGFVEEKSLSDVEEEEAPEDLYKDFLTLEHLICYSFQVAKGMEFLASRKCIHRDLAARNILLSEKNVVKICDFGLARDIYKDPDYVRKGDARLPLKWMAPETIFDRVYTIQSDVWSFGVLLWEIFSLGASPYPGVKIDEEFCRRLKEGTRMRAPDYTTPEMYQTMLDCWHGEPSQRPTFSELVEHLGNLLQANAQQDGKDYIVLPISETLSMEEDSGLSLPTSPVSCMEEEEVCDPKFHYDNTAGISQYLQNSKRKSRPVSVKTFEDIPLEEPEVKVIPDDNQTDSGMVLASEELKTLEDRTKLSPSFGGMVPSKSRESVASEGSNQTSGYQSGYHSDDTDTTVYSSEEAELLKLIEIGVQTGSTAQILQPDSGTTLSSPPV
# Sequence of UniProt Q8N4C8 (whole entry, looked up): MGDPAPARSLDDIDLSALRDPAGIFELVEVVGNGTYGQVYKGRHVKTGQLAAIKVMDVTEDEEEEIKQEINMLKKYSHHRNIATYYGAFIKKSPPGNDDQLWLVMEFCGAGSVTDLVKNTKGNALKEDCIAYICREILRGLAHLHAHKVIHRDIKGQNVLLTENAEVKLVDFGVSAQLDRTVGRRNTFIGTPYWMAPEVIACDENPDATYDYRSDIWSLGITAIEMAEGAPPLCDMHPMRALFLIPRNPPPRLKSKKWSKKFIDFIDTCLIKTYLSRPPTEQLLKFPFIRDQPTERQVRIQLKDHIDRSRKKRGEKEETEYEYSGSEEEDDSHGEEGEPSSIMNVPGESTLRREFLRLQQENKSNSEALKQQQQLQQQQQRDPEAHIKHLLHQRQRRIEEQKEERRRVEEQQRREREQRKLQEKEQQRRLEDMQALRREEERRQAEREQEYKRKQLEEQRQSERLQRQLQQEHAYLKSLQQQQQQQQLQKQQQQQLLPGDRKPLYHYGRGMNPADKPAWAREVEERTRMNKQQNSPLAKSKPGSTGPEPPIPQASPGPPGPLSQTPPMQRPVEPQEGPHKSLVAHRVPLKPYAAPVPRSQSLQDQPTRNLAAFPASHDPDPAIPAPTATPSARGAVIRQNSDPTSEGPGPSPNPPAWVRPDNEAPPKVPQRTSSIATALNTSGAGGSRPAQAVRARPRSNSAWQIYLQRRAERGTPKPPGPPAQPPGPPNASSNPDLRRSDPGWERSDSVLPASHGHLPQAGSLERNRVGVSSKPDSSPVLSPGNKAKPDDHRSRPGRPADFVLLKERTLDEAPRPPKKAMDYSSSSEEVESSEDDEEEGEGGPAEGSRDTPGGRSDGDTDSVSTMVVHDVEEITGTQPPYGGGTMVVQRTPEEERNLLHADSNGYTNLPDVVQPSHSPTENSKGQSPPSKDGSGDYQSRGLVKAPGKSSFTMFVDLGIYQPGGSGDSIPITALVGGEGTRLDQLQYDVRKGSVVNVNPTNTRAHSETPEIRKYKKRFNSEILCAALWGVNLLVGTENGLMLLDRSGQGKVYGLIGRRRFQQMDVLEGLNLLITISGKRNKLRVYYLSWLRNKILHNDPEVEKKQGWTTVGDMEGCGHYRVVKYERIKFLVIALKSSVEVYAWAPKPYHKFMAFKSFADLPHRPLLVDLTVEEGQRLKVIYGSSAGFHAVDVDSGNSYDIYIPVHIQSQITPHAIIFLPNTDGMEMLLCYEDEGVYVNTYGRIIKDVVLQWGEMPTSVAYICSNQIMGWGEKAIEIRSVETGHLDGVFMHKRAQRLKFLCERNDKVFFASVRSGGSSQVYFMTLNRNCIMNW
# Sequence of UniProt Q5BJF2 (whole entry, looked up): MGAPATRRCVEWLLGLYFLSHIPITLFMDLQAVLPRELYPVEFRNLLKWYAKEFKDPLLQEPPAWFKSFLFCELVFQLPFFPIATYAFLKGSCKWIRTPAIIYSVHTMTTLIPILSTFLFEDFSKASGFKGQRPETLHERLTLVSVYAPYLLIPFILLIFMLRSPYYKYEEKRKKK
# Sequence of UniProt O75676 (whole entry, looked up): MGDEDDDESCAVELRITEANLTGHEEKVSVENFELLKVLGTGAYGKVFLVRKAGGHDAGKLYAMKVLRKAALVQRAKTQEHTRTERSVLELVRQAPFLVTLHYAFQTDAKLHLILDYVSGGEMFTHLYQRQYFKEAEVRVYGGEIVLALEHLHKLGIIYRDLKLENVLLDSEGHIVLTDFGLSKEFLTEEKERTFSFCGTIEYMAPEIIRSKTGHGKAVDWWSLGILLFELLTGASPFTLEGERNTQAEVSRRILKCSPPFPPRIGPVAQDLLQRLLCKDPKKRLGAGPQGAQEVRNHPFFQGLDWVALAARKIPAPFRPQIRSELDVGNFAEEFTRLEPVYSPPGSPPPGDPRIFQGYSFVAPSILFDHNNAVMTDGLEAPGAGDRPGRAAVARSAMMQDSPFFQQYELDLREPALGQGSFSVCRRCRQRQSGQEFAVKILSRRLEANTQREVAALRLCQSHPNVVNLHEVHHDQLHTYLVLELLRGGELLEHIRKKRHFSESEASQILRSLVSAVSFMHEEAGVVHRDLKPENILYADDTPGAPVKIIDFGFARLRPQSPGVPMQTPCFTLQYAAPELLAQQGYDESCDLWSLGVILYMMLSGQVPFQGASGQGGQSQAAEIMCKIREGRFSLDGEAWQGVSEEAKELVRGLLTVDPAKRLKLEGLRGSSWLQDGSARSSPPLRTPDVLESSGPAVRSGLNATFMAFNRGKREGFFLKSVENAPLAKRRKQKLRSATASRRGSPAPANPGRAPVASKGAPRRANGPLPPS

# Set 1
# SMILES: N#Cc1cnc2cnc(NCc3cccnc3)cc2c1Nc1ccc(F)c(Cl)c1
# Read-out: enzyme activity
# Mode: inhibitor
# Concentration: 0.5 µM
# Reference: control
target,remaining activity [%]
"MAPK1 (Homo sapiens, UniProt P28482)",105
"RPS6KA4 (Homo sapiens, UniProt O75676)",92
"CAMK4 (Homo sapiens, UniProt Q16566)",95.2
"MAPK14 (Homo sapiens, UniProt Q16539)",115
"PLK3 (Homo sapiens, UniProt Q9H4B4)",91.1
"PAK3 (Homo sapiens, UniProt O75914)",99.2
"MARK2 (Homo sapiens, UniProt Q7KZI7)",93.2
"KDR (Homo sapiens, UniProt P35968)",96.3
"CDC42BPB (Homo sapiens, UniProt Q9Y5S2)",124
"Cyclin-dependent kinase 1, with cyclin A (CDK1, Homo sapiens, UniProt P06493)",88
"MINK1 (Homo sapiens, UniProt Q8N4C8)",77.5
"AKT2 (Homo sapiens, UniProt P31751)",101
"MAPK11 (Homo sapiens, UniProt Q15759)",102
"DCLK2 (Homo sapiens, UniProt Q8N568)",97.2

# Set 2
# Structure (SMILES): FC(F)(F)c1ccc2c(c1)nc(-c1cccnc1)n2C1CC1
# Read-out: cell-free assay
# Concentration: 10 µM
target,inhibition [%]
"HRH2 (Homo sapiens, UniProt P25021)",6.72
"CHRM4 (Homo sapiens, UniProt P08173)",-11.5
"DRD3 (Homo sapiens, UniProt P35462)",-1.96
"ADRB1 (Homo sapiens, UniProt P08588)",13.4
"TMEM97 (Homo sapiens, UniProt Q5BJF2)",26.5
"HTR6 (Homo sapiens, UniProt P50406)",60.4
"HRH4 (Homo sapiens, UniProt Q9H3N8)",-9.43
"DRD4 (Homo sapiens, UniProt P21917)",-3.28

# Set 3
# Species: mouse
# Medium: microsomes or S9
# Concentration: 2 µM
# Time: 0.5 h
SMILES,remaining compound [%]
Cn1[nH]c(Br)c2/c(=N\CCN)ncnc1-2,65
COc1ccc(Cc2nc3c4cnn(-c5cc(Cl)ccc5Cl)c4ncn3n2)cc1,< 1
Clc1ccc(-c2c(-n3cncn3)nc3ccc(Cl)cc3c2Cl)c(Cl)c1,57.5
C[S+]([O-])c1nc2ccc(F)cc2c(-n2ccnc2)c1-c1ccc(Cl)cc1Cl (stereo not shown),> 100
CC(C)CCn1cc(C(=O)Nc2cccc3[nH]ccc23)c2ccccc2c1=O,25.7
Cc1nn(-c2ccccc2)c2nc3c(cc12)C(=O)CC(c1cccs1)C3 (stereo not shown),7.21
COc1cc(NS(=O)(=O)c2ccc(-c3nnc(C4CCC4)o3)s2)cc(OC)c1,1.41
Cn1c2ccccc2n2c(=O)n(Cc3cscn3)nc12,67

# Mixed results
Compound,target,test,system,conditions,endpoint,result
CC(C)S(=O)(=O)c1ccc2nccc(Nc3ccc4scnc4c3)c2c1,"Receptor-interacting serine/threonine-protein kinase 3 (Ripk3, Mus musculus, UniProt Q9QZL0, C111A)","dimerization, size-exclusion chromatography",mouse kinase domain,concentration not given,SEC elution volume,14.9 mL
